# Published values gathered from unrelated publications.
# Each numbered part is a random draw from the data of one study; scales do not carry over between parts. Substitutions count along the parent as printed.

# Block 1 — technique: RNA Bind-n-Seq; molecule type: RNA; matrix: in vitro; concentration: 200 nM; setting: whole 134-nt RNA, ends assumed; together with: 150 mM LiCl; relative to: input library; reading: higher = stronger binding; each molecule: 7-deaza-guanosine replaces G
# Target: Fragile X messenger ribonucleoprotein 1, C-terminal low-complexity region (Fmr1, Mus musculus, UniProt P35922)
# All sequences stand within: GGGAGUUCUACAGUCCGACGAUC … UGGAAUUCUCGGGUGUCAAGG
Oligonucleotide,log2 enrichment
CACAGACAACACGCACCCACACAGACACAGAGGGACGGGGUUGGGAUGGGGACAGGGUGCACAGCAGGGCGGGGUAGGACCCCAGCCCCU,-1.22
CAAGUCCUGUGCUACACAUCGUAUGUACCGAAUCGGGGCCCGGGCCCGGGCCCGGGAAAGUAUUAUGUUACGCCGUUCGGAUCUGCACUU,-1.74
UCCUGUGCUACACAUCGUAUGUACCGAAUCGGGGAAAAAGGGGAAAGGGGAAAAAGGGGAAAGUAUUAUGUUACGCCGUUCGGAUCUGCA,-0.106
CAAGUCCUGUGCUACACAUCGUAUGUACCGAAUCGGUGGUUUUUUUGGUUUUUGGAAAGUAUUAUGUUACGCCGUUCGGAUCUGCACUUC,-1.18
CUGUGCUACACAUCGUAUGUACCGAAUCGGGUUUUUUGGGGUUUUUUGGGGUUUUUUGGGGAAAGUAUUAUGUUACGCCGUUCGGAUCUG,1.4
UCAAGUCCUGUGCUACACAUCGUAUGUACCGAAUCGGGAAAGGGAAAGGAAAGGAAAGUAUUAUGUUACGCCGUUCGGAUCUGCACUUCC,-1.3
UGUGCUACACAUCGUAUGUACCGAAUCGGGGUUUUUGGGGUUUUUUUGGGGAAAAAAAGGGGAAAGUAUUAUGUUACGCCGUUCGGAUCU,-0.119
GUCCUGUGCUACACAUCGUAUGUACCGAAUCGGGAAAAAGGGUUUUUUUGGGUUUGGGAAAGUAUUAUGUUACGCCGUUCGGAUCUGCAC,-2.33
GUCCUGUGCUACACAUCGUAUGUACCGAAUCGGGGAAAGGGGUUUGGGGAAAAAGGGGAAAGUAUUAUGUUACGCCGUUCGGAUCUGCAC,-0.956
GCAGGAAGUAAAAACAAAUGGAAAUGCUUCGGAUAGUGGCAGGGGUGGGGGUUGCUAAGGAAAGAAAGGGAUGGGAGUGGGUAAAGAGUU,1.46
CAAGUCCUGUGCUACACAUCGUAUGUACCGAAUCGGGGAGGGGAGGGGAAAGGGGAAAGUAUUAUGUUACGCCGUUCGGAUCUGCACUUC,0.432

# Block 2 — target: CCND1, cyclin fold, Cln2 fusion (human); technique: yeast growth competition, sequencing; matrix: yeast; setting: weak parent motif; relative to: not given; reading: higher = stronger binding
# Starting sequence: GMNC docking peptide (human); KNAKRNLSSEFAN; partner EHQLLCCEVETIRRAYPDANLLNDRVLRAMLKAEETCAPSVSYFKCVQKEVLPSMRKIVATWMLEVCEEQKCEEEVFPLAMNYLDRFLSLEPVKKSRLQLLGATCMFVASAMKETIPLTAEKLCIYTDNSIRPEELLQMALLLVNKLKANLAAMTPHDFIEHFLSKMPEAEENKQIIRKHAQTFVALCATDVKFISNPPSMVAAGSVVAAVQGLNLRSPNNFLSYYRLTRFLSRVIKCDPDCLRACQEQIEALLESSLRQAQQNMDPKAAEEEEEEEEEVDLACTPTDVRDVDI
Substitution,normalised enrichment score
A12I,0.674
K4R,0.794
R5F,-0.0198
A12R,0.257
E10F,0.243
L7W,-0.142
S8Y,0.386
K4F,0.214
S8G,0.424
N6V,-0.019
N2A,0.291
A12T,0.517
R5E,0.254
L7M,-0.000143
A3M,0.223
N2W,0.477
L7Q,0.0419
E10P,-0.0971
E10K,-0.227
N6D,0.547
S8Q,0.893
L7I,0.468
E10H,-0.0634
N2S,0.943
S8T,0.271

# Block 3 — technique: RNA Bind-n-Seq; molecule type: RNA; matrix: in vitro; concentration: 365 nM; relative to: no-protein control; reading: higher = stronger binding
# Target: RNA binding protein fox-1 homolog 2, RRM domain, GST-SBP tag (RBFOX2, Homo sapiens, UniProt O43251-10, residues 100-194)
# Setting: natural RNA segment, single round, ends assumed
# All sequences stand within: GGGAGUUCUACAGUCCGACGAUC … UGGAAUUCUCGGGUGCCAA
# Target sequence (chain): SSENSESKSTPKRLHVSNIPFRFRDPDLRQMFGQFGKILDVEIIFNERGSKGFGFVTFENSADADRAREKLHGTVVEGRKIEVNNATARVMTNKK
Oligonucleotide,RBNS enrichment (R)
CCUCUGCCUGGUGGCUGGUGUAUCCCAACUGGGCAAGAGAUGGCAGAGGGUCCCCCUUGUGGGUGCGCUUGGAUGUGCAGAGCCUUCUCCAUGGAUUUUCUUCCCUGUAA,0.379
UUCAUCAGUUCCUAACCUACUCUGCAGAACUGCAACAGUUCGCUCAGGCCAGUGUUGAAACUUUCACACCCUGAGUGACUACGGGAGAACUGCCAGCUUCCGCUUCUCUG,0.31
UUACCUUCAGCUGUCUCAGGAAGACCUUGCUGUCCCAGAGUGUACUGAGAGCAUCACUAUCAGGCAUGUGUUACCAAAAAACUGGCAGAAUCAGAAACUCAUUUACAUAA,2.02
AAUUACUAACUUCUAAAACUGUACUUUGAUUCACAUGUUUUCAAAUGGAGUUGGAGUUCAUUCAUAUUACAAUAUUUGUGUGCUAAACGUGUAUGUUUUUCAGUUCAAAG,0.385
GGCUUACGUAAAGAAAGGGUCACCAUUUGAGGUCCUGCCUUACCAAUUAUGUGCUGCCCAACAACUAAAUUUGUAAUUUGUUUUCUCUACUUUGAGCAGGGUCUGAAUUU,0.335
GUCCAACAUGAGAUUUUAGGAAUAGAAAUUUGCCGGCCAUUUGGAAAGUGAAAUGCCACUUAGUUCUCAAUUGAUGACAGUGUUUGAAUCAUCAUAAAAAAAAUACCUGC,1.1
CGAGGGCUCCGGAUCCCUUAUCCUACUUAGCAGUGUUGGUCUCUGGGGCUGGAAGCCGAGCGCAUGCUGGGAGCGGUACUGUCAGAAGUGAGCCCAGUUAGUACCCCGCU,3.02
CUCAGGGUCCAGCCAUGCCCCACCCUGGACUGAAGUUCUGCAAAGUCCUCCGAGGACCGGAACACGUUUCUGCGACCCGGGGCUCUGGCCAGCACUGUGUUCUGCGUUUG,0.221
UUUCUUUCAGCUGUUUGUUAGUUUUUGCUUUAUUUAAAGCAUAUUUAAGUUAUUUUAAUGUGGUUUAGGGGCAAAAUGUGCAGAUACUUCAUUUUUGUAAGAUAGAUUGU,0.494
UGCCCAGAGGUAGAGUUAGUGUUUAGGUGGAAAGGGAGAUGACAGCUUUCCAAAGAAGGACCUAAAACACACCAAGAUUGUCUUCUACAGGAAUUGCUGGGCAGGUCUCC,1.8
CAAAGAAAUACAGAUAUAUCUUAAAAAAAAAAGCAUUUUGUAUUAAAGAAUUGAAUUCUGAUCUCAAGCUCUCCCUGGUCUCUCCUUCUCUCCUGGGCCCUCCUGUCUCG,0.817
CUUCCUUACCACGGCCCACGUAAAUGUGACCCUGGACAUCUGUCACACGAAAGCUAAGCUGGUGGCCUUCCCCGCCAGCCCCUCGCAGGAUGGGGGUUUCAAUGUGAAAC,0.269

# Block 4 — technique: aptamer microarray, sandwich; molecule type: DNA with 2'F-ANA; matrix: in vitro; concentration: 200 nM; together with: Cy3 exosite-II aptamer, 400 nM; reading: higher = stronger binding; oligonucleotide: GGTTGGTGTGGTTGG
# Target: Prothrombin, mature alpha-thrombin (F2, Homo sapiens, UniProt P00734)
# Setting: whole 15-mer aptamer, many near background
Modification,mean fluorescence intensity
2'F-ANA at 1 3 4 6 7 9 11 13 14 15,60.5 a.u.
2'F-ANA at 1 3 4 5 7 10 11 12 14 15,52.1 a.u.
2'F-ANA at 2 3 5 6 8 9 12 14 15,58 a.u.
2'F-ANA at 1 4 6 7 11 12 13,152 a.u.
2'F-ANA at 2 4 5 8 9 11 14,84.1 a.u.
2'F-ANA at 2 3 4 6 7 8 9 14,238 a.u.
2'F-ANA at 10 12 14 15,92.5 a.u.
2'F-ANA at 3 4 5 7 9 11 12 14 15,56.5 a.u.
2'F-ANA at 1 2 7 8 10 11 12 13 14,45.9 a.u.
2'F-ANA at 3 5 6 8 9 14 15,53 a.u.
2'F-ANA at 2 3 8 10 11 13 14,235 a.u.
2'F-ANA at 1 2 5 11 13 15,58.4 a.u.
2'F-ANA at 1 4 7 8 10 11 13 15,49.5 a.u.
2'F-ANA at 1 2 3 4 7 8 9 11 13 14 15,62.5 a.u.
2'F-ANA at 1 3 6 7 9 10 11 12 15,132 a.u.
2'F-ANA at 1 7 9 12 13 14,64.9 a.u.

# Some of these lines once more (block 1):
Oligonucleotide,log2 enrichment
CUGUGCUACACAUCGUAUGUACCGAAUCGGGUUUUUUGGGGUUUUUUGGGGUUUUUUGGGGAAAGUAUUAUGUUACGCCGUUCGGAUCUG,1.4
UCAAGUCCUGUGCUACACAUCGUAUGUACCGAAUCGGGAAAGGGAAAGGAAAGGAAAGUAUUAUGUUACGCCGUUCGGAUCUGCACUUCC,-1.3
UGUGCUACACAUCGUAUGUACCGAAUCGGGGUUUUUGGGGUUUUUUUGGGGAAAAAAAGGGGAAAGUAUUAUGUUACGCCGUUCGGAUCU,-0.119
GUCCUGUGCUACACAUCGUAUGUACCGAAUCGGGAAAAAGGGUUUUUUUGGGUUUGGGAAAGUAUUAUGUUACGCCGUUCGGAUCUGCAC,-2.33
GUCCUGUGCUACACAUCGUAUGUACCGAAUCGGGGAAAGGGGUUUGGGGAAAAAGGGGAAAGUAUUAUGUUACGCCGUUCGGAUCUGCAC,-0.956
GCAGGAAGUAAAAACAAAUGGAAAUGCUUCGGAUAGUGGCAGGGGUGGGGGUUGCUAAGGAAAGAAAGGGAUGGGAGUGGGUAAAGAGUU,1.46
